Results pooled from the literature.
Lines come from different studies, so protocols differ. “And” joins repeats or separate records; there may be more than shown. Numbers after ± are the reported error.
ADRA1A: Alpha-1A adrenergic receptor (ADRA1A, Homo sapiens, UniProt P35348)
CASP10: Caspase-10 (CASP10, Homo sapiens, UniProt Q92851)
HSD3B1: 3 beta-hydroxysteroid dehydrogenase/Delta 5-->4-isomerase type 1 (HSD3B1, Homo sapiens, UniProt P14060)
MAPT PHF6* peptide: Microtubule-associated protein tau, PHF6* peptide (MAPT, Homo sapiens, UniProt P10636)
CASP8: Caspase-8 (CASP8, Homo sapiens, UniProt Q14790)
T1: DNA (Homo sapiens); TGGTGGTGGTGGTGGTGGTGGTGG

SMILES	tested on	assay	test system	setting	scale	endpoint	value
C=CC(=O)N1CC2(CCN(c3nc(OC4CCN(CCCOC)CC4)nc4c(OCC(F)(F)F)c(-c5c(C)ccc6[nH]ncc56)c(C5CC5)cc34)CC2)C1	GTPase KRas, GDP-bound (KRAS, Homo sapiens, UniProt P01116, Q61H)	SPR				dissociation rate constant koff	0.0433 ± 0.0006 s⁻¹
Cc1ccc2oc(=O)cc(Cn3ccnc3)c2c1	ADRA1A	flow cytometry binding	COS-7	500 µM, tracer 6.25 nM		inhibition of binding	67.5 ± 2.68%
CC(=O)N[C@@H](Cc1c[nH]c2ccccc12)C(=O)N[C@@H](CCC(=O)O)C(=O)N[C@@H](C)C(=O)N[C@@H](CC(=O)O)C(=O)COC(=O)c1c(C)cccc1C	CASP10	enzyme activity, inhibitor				kinact/KI	301000 M⁻¹ s⁻¹
CCCCCC=CC=C1C(=O)C=CC1CC=CCCCC(=O)O (stereo not shown)	Exportin-2 (Homo sapiens, UniProt P55060)	competitive isoTOP-ABPP, measured: CSE1L cysteine peptide	proteome, soluble, MDA-MB-231	100 µM, added: iodoacetamide probe	baseline: DMSO over compound-treated, higher = stronger cysteine blockade	isoTOP-ABPP competition ratio	2.3
CC[C@H](C)[C@H](NC(=O)[C@H](CCCC(=O)O)NC(=O)[C@H](CC(=O)O)NC(C)=O)C(=O)N[C@@H](CC(=O)O)C(=O)COC(=O)c1c(C)cccc1C	CASP10	enzyme activity, inhibitor				kinact/KI	101000 M⁻¹ s⁻¹
CCN(CC)C(=O)c1ccc(O)c(OC)c1	Heat shock protein HSP 90-alpha, N-terminal domain (HSP90AA1, Homo sapiens, UniProt P07900)	binding, ligand-observed NMR titration		9.86 µM, ligand to protein ratio 272		bound ligand fraction	0.28
CNC[C@H](O)c1cccc(OCCOCCOCC#Cc2cccc(Cn3c(-c4ccccc4)c(-c4ccccc4)c4c(=N)n([C@H]5CC[C@H](O)CC5)cnc43)c2)c1	ADRA1A	protein level, degrader, western blot	PC-3			Dmax	88%
O=C(N1CCCC1)n1cc(-c2ccc(-c3ccccc3)cc2)nn1	Platelet-activating factor acetylhydrolase 2, cytoplasmic (Mus musculus, UniProt Q8VDG7)	probe labelling, inhibitor, competitive ABPP-SILAC	mouse T cells	concentration not given, 4 h, single peptide	baseline: treated over DMSO cells, lower = stronger inhibition	SILAC activity ratio	0
N=C(N)NCCS(=O)(=O)O	SLC6A6 (Homo sapiens, UniProt P31641, Y138A)	binding, microscale thermophoresis		31.3 µM, room temperature, added: 50 nM labelled protein	higher = more binding	normalised MST signal	0.0449
Cc1ncsc1-c1ccc(C(C)NC(=O)C2CC(O)CN2C(=O)C(NC(=O)CCCCCCCCCCN2CCCC(Nc3ncc(Cl)c(Nc4ccccc4S(=O)(=O)C(C)C)n3)C2)C(C)(C)C)cc1 (stereo not shown)	22Rv1	RNA-seq, measured: SPSB2 mRNA		concentration not given	baseline: DMSO	log2 fold change	-1.57
COc1ccc2c(c1)OC1=C(/C=C/c3sc4ccccc4[n+]3C)CCCC1=C2	Cytochrome P450 2J2 (CYP2J2, Homo sapiens, UniProt P51589)	O-demethylation, substrate		pH 7.4, 37 °C		Vmax	22.9 ± 0.33 nmol/min/nmol P450
O=c1c(-c2ccccc2Br)coc2cc(O)ccc12	HSD3B1	[3H]-DHEA conversion	LNCaP	0.1 µM, normalized to protein, unit not given	baseline: vehicle	DHEA metabolism	0
Cc1cc(=O)oc2c(F)c(OP(=O)(O)O)c(F)cc12	PTPN11 (Homo sapiens, UniProt Q06124)	dephosphorylation, substrate				Km	730 ± 40 µM
CC(=O)N[C@H](C(=O)N[C@@H](CCCNC(N)=O)C(=O)N[C@@H](CCO)C(=O)N[C@@H](CC(=O)O)C(=O)COC(=O)c1c(C)cccc1C)C1CCCCC1	CASP10	enzyme activity, inhibitor				kinact/KI	25800 M⁻¹ s⁻¹
CO[C@@H]1[C@H](O)[C@@H](COP(=O)(O)OP(=O)([O-])C(Cl)(Cl)P(=O)(O)OP(=O)(O)OC[C@H]2O[C@@H](n3cnc4c(=O)[nH]c(N)nc43)[C@H](O)[C@@H]2O)O[C@H]1n1c[n+](C)c2c(O)nc(N)nc21	DCPS (Homo sapiens, UniProt Q96C86)	substrate, HPLC		concentration not given, 30 min		hydrolysis	0%
CCCCCCCC/C=C\CCCCCCCC(=O)NCCO	Trpv1 (Mus musculus, UniProt Q704Y3, S511T)	ion current, agonist, whole-cell patch clamp		S511T		Hill coefficient	1.54 ± 0.44
CC(C)[C@H](NC(=O)[C@@H](NC(=O)[C@H](Cc1ccccc1)NC(=O)[C@@H](N)CO)[C@@H](C)O)C(=O)N[C@@H](CCCNC(=N)N)C(=O)N[C@@H](C)C(N)=O	MAPT PHF6* peptide	fibril formation, ThT fluorescence		0.1-fold of peptide, pH 7.4, added: Ac-PHF6* 25 µM, heparin	baseline: untreated	ThT fluorescence	102 ± 2%
O=C1Nc2ccc3ccc(nc3n2)CNCc2ccc3ccc(nc3n2)NC(=O)OCCCNCCCO1	T1, DNA (Homo sapiens)	SPR				binding	binds
O=c1c(-c2ccc(Cl)c(CN3CCCCC3)c2)coc2cc(O)ccc12	HSD3B1	[3H]-DHEA conversion	LNCaP	0.1 µM, normalized to protein, unit not given	baseline: vehicle	DHEA metabolism	1.97

SMILES	tested on	assay	test system	setting	scale	endpoint	value
CC(=O)N[C@@H](CC(C)C)C(=O)N[C@H](C(=O)N[C@@H](Cc1c[nH]cn1)C(=O)N[C@@H](CC(=O)O)C(=O)COC(=O)c1c(C)cccc1C)C(C)(C)C	CASP10	enzyme activity, inhibitor				kinact/KI	321000 M⁻¹ s⁻¹
CCCCCCCCCCCCC/C=C/C=O	Gasdermin-D (GSDMD, Homo sapiens, UniProt P57764)	competitive isoTOP-ABPP, measured: GSDMDC1 cysteine peptide	Ramos soluble proteome	100 µM, added: iodoacetamide probe	baseline: DMSO over compound-treated, higher = stronger cysteine blockade	isoTOP-ABPP competition ratio	1
C[Si](C)(C)C[C@H](CN)CC(=O)O	SLC29A1 (Homo sapiens, UniProt Q99808)	binding, radioligand binding		250 µM, added: [3H]nitrobenzylthioinosine		inhibition	0%
CC(=O)N1[C@H](C(=O)N[C@H](C(=O)N[C@@H](Cc2c[nH]cn2)C(=O)N[C@@H](CC(=O)O)C(=O)COC(=O)c2c(C)cccc2C)C(C)(C)C)C[C@@H]2CCCC[C@@H]21	CASP10	enzyme activity, inhibitor				kinact/KI	4300 M⁻¹ s⁻¹
CCOC(=O)C1CC(C)C2C=CC3CCN(C(=O)C4CCC5C=CC6(CCCN6C(=O)C(Cc6ccccc6Cl)NC(C)=O)C(=O)N54)C3C(=O)N12 (stereo not shown)	Ena/VASP-like protein, EVH1 domain (EVL, Homo sapiens, UniProt Q9UI08)	isothermal titration calorimetry				ligand efficiency	-690 J/(mol·heavy atom)
CC(=O)N[C@@H](Cc1c[nH]c2ccccc12)C(=O)N[C@@H](CCC(=O)O)C(=O)N[C@@H](Cc1c[nH]cn1)C(=O)N[C@@H](CC(=O)O)C(=O)COC(=O)c1c(C)cccc1C	CASP8	inhibitor		recombinant enzyme		kobs/[I]	1.33e+06 M⁻¹ s⁻¹
O=C1c2sc(-c3ccc(N4CCC(F)C4)nc3F)nc2CCN1c1cccnc1 (stereo not shown)	TAR DNA-binding protein 43, aggregated (TARDBP, Homo sapiens, UniProt Q13148)	radioligand binding	human, FTLD-TDP type B sarkosyl-insoluble extract	3.53 nM		specific binding	0.275 nM and 0.172 nM
CC(C)[C@@H]1NC(=O)[C@H](Cc2ccccc2)NC(=O)CSC[C@@H](C(N)=O)NC(=O)[C@H](CCC(=O)O)NC(=O)[C@H](CO)NC(=O)[C@H](Cc2c[nH]c3cccc(Cl)c23)NC(=O)[C@H](C2CCCCC2)NC(=O)[C@H](C(C)C)NC(=O)[C@H](Cc2ccc(O)cc2)NC(=O)[C@H](CC(=O)O)NC(=O)[C@H](Cc2c[nH]c3ccccc23)NC(=O)[C@H](Cc2ccc(N)nc2)NC(=O)[C@H](Cc2c[nH]c3ccc(Cl)cc23)NC(=O)[C@H](CCC(=O)O)NC1=O	Interleukin-1 receptor-like 2 (IL1RL2, Homo sapiens, UniProt Q9HB29)	reporter gene (SEAP), inhibitor, HEK-Blue IL-36R reporter	HEK-Blue IL-36R cells	0.41 µM, 6 h, added: IL-36β 0.03 ng/mL		remaining activity	22.4%
N#CN1CC[C@H](C(=O)Nc2nc3c(s2)CN(C(=O)Cn2cc(CNC(=O)CCCC[C@@H]4SC[C@@H]5NC(=O)N[C@@H]54)nn2)CC3)C1	USP15 (Homo sapiens, UniProt Q9Y4E8)	probe binding, affinity probe, neutravidin pull-down LC-MS/MS	HEK293T, cell lysate	5 µM, 1 h, mean of three replicates, unit not given	higher = more pulled down	iBAQ abundance	3.65e+06
Cc1cc(C(=O)NCCNC(=O)c2cccc(COc3ccccc3C(N)=O)c2)n[nH]1	PARP1 (Homo sapiens, UniProt P09874)	enzyme activity, inhibitor		0.104 µM		inhibition	100%
C#CCOC(=O)[C@@]1(C)C=C(C(=O)OC(C)(C)C)C(=O)CC1	MAPK8 (Homo sapiens, UniProt P45983)	enzyme activity, D-SENSOR		4.938 µM, mean of replicates		normalized kinase activity	0.9
CCCC[C@H](NC(C)=O)C(=O)N[C@@H](CCCC(=O)O)C(=O)N1CCC[C@H]1C(=O)N[C@@H](CC(=O)O)C(=O)COC(=O)c1c(C)cccc1C	CASP10	enzyme activity, inhibitor				kinact/KI	322000 M⁻¹ s⁻¹
Cc1cc(C)cc(COc2cc3c(cc2OCc2cc(C)cc(C)c2)C2CC(O)(Cc4cn(CCOCCOCCNC(=O)CCCCC5SCC6NC(=O)NC65)nn4)CC(C)N2CC3)c1 (stereo not shown)	Atlastin-2 (ATL2, Homo sapiens, UniProt Q8NHH9)	biotinylated probe pull-down, measured: ATL2		10 µM probe	baseline: heavy over light	SILAC ratio	1.48
CCNC(=S)NN=Cc1c2ccccc2cc2ccccc12.Cc1ccc(C(C)C)cc1.[Cl-].[Cl-].[Ru+2]	TOP2A (Homo sapiens, UniProt P11388)	DNA relaxation, inhibitor		30 min, 37 °C, added: pHOT1 DNA		minimum inhibitory concentration	20 µM
CC[C@H](C)[C@H](NC(=O)[C@@H](NC(=O)[C@@H](NC(=O)[C@@H](NC(=O)[C@H](CCCCN)NC(=O)[C@H](CCC(=O)O)NC(=O)[C@H](C)N)C(C)C)C(C)C)C(C)C)C(=O)N[C@H](C(=O)N[C@@H](CCCCN)C(N)=O)[C@@H](C)O	MAPT PHF6* peptide	fibril formation, ThT fluorescence		0.1-fold of peptide, pH 7.4, added: Ac-PHF6* 25 µM, heparin	baseline: untreated	ThT fluorescence	105 ± 4%
CC(C)=CC1OC(C)(C)C2C=C3C(=O)C(Cl)=CC(O)C3C3C(O)C4OC4C(=O)C132 (stereo not shown)	Tyrosine-protein kinase ABL1, non-phosphorylated (ABL1, Homo sapiens, UniProt P00519, Q252H)	cell-free assay, competition with immobilised ligand		10 µM		remaining binding	60%
CC(=O)N[C@H](CCc1ccccc1)C(=O)N[C@@H](CCCC(=O)O)C(=O)N1C[C@H](O)C[C@H]1C(=O)N[C@@H](CC(=O)O)C(=O)COC(=O)c1c(C)cccc1C	CASP8	enzyme activity, inhibitor				kinact/KI	890000 M⁻¹ s⁻¹
O=C(CCc1ccc2n1[B-](F)(F)[N+]1=C(c3ccc[nH]3)C=CC1=C2)NCCCn1cc(COC[C@H]2CN(Cc3ccccn3)C(=O)[C@@H]3CCC[C@H]2N3S(=O)(=O)c2cc(Cl)cc(Cl)c2)nn1	FKBP1A (Homo sapiens, UniProt P62942)	tracer binding, NanoBRET tracer titration	HEK293T transiently expressing FKBP1A			Hill slope	0.6 ± 0.1

Some of these lines once more:
SMILES	tested on	assay	test system	setting	scale	endpoint	value
C#CCOC(=O)[C@@]1(C)C=C(C(=O)OC(C)(C)C)C(=O)CC1	MAPK8 (Homo sapiens, UniProt P45983)	enzyme activity, D-SENSOR		4.938 µM, mean of replicates		normalized kinase activity	0.9
CCOC(=O)C1CC(C)C2C=CC3CCN(C(=O)C4CCC5C=CC6(CCCN6C(=O)C(Cc6ccccc6Cl)NC(C)=O)C(=O)N54)C3C(=O)N12 (stereo not shown)	Ena/VASP-like protein, EVH1 domain (EVL, Homo sapiens, UniProt Q9UI08)	isothermal titration calorimetry				ligand efficiency	-690 J/(mol·heavy atom)
CO[C@@H]1[C@H](O)[C@@H](COP(=O)(O)OP(=O)([O-])C(Cl)(Cl)P(=O)(O)OP(=O)(O)OC[C@H]2O[C@@H](n3cnc4c(=O)[nH]c(N)nc43)[C@H](O)[C@@H]2O)O[C@H]1n1c[n+](C)c2c(O)nc(N)nc21	DCPS (Homo sapiens, UniProt Q96C86)	substrate, HPLC		concentration not given, 30 min		hydrolysis	0%
